Assay results pooled from the literature.
Numbered parts are unrelated; each lists some results of a single study. Positions count from the first letter of the parent shown.

Sample 1
Target: Interferon regulatory factor 7, full length, phosphomimetic (IRF7, Homo sapiens, UniProt Q92985, residues 1-503, S101K/S471D/S472D/S475D/S476D/S477D/S483D/S484D/S487D)
Method: protein-binding microarray
Molecule type: double-stranded DNA, one strand shown
Sample: in vitro
Tested at: 250 nM
Notes: 60-bp whole probe
Added: salmon DNA 0.4 mg/ml
Relative to: random background probes
Reading: higher = stronger binding
Shared flanks, not repeated: GCCTAGCAC … GTCTTGATTCGCTTGACGCTGCTG
Residues (chain): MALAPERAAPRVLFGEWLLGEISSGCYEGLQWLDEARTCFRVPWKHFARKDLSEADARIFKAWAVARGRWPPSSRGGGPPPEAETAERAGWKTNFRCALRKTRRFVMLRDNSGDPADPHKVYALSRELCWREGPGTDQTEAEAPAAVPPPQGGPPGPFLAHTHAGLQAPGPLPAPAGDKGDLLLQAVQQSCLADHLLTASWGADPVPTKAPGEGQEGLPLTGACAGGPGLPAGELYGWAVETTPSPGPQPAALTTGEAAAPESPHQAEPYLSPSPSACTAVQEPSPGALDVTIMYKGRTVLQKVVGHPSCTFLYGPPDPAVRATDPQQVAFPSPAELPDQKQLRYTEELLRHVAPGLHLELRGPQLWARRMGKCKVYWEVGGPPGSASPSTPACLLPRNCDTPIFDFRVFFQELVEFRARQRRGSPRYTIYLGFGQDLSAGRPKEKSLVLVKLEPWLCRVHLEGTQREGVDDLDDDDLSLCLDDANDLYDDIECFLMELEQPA
| Sequence | log fluorescence |
| --- | --- |
| TTAGGTTTCGACTTTCCGTTAGTGCTA | 10.4 z-score |
| GACGGTATCGGGACGGGGGACGTGCTA | 1.67 z-score |
| AGAAATTTTTTTTCTAACTAGTGCTAG | -0.267 z-score |
| TTTGATATCAGTCTCGATTAGTGCTAG | 1.41 z-score |
| TTAGGTCTCCTTCTCCTTTAGTGCTAG | 0.265 z-score |
| TCATTTTCATTTTATGACACTGTGCTA | 3.91 z-score |
| TTCGGTTTCCTTTCCCTTTAGTGCTAG | 5.93 z-score |
| GACGGTCTCCTTTTGCTGACGTGCTAG | 1.55 z-score |
| TTAGATCTCGGGTATCGATTAGTGCTA | 0.795 z-score |
| GACGGCTTCGGACTGGGGACGTGCTAG | -0.352 z-score |
| GACGGTACCGGGTATCGGGACGTGCTA | -0.0908 z-score |
| GACGATTTCGACACTGGGGACGTGCTA | 0.225 z-score |
| GACGATATCAGTCTCGAGATGTGCTAG | 0.646 z-score |
| TCAATTTTTACTTTCTGACTGTGCTAG | 0.797 z-score |
| AACTAAAGAGACCACAAAAAGTGCTAG | 0.462 z-score |
| GACGGTTTCGACTAACGGGACGTGCTA | 6.25 z-score |
| TTAGGTTTCGACACGGGGTTAGTGCTA | 3.71 z-score |
| GAAGGTTTCCTACTGCTGACGTGCTAG | 1.11 z-score |
| TTAGGACTGGGGACTGGGTTAGTGCTA | -0.299 z-score |

Sample 2
Organism: Saccharomyces cerevisiae
Observed: binding
Method: yeast competitive growth sequencing
Molecule type: peptide
Strain: cyclin D2-Cln2 fusion strain
Notes: peptide tiling library
Reading: direction not given
| Molecule | enrichment score |
| --- | --- |
| RRVLCFDS | -0.889 |
| GFGFLLFICKLTF | -0.725 |
| PPKPLKKLRFDIEGSD | -0.428 |
| ARKRLELGNLGNPQ | -1.64 |
| KVKRRLDLDIDGLQKE | -0.0975 |
| LRRQLSFSED | 0.461 |
| LRRKLFLDGNGSIS | -2.86 |

Sample 3
Target: Sal-like protein 4, full length isoform A (SALL4, Homo sapiens, UniProt Q9UJQ4, residues 1-1053)
UniProt Q9UJQ4, sequence (whole entry, looked up): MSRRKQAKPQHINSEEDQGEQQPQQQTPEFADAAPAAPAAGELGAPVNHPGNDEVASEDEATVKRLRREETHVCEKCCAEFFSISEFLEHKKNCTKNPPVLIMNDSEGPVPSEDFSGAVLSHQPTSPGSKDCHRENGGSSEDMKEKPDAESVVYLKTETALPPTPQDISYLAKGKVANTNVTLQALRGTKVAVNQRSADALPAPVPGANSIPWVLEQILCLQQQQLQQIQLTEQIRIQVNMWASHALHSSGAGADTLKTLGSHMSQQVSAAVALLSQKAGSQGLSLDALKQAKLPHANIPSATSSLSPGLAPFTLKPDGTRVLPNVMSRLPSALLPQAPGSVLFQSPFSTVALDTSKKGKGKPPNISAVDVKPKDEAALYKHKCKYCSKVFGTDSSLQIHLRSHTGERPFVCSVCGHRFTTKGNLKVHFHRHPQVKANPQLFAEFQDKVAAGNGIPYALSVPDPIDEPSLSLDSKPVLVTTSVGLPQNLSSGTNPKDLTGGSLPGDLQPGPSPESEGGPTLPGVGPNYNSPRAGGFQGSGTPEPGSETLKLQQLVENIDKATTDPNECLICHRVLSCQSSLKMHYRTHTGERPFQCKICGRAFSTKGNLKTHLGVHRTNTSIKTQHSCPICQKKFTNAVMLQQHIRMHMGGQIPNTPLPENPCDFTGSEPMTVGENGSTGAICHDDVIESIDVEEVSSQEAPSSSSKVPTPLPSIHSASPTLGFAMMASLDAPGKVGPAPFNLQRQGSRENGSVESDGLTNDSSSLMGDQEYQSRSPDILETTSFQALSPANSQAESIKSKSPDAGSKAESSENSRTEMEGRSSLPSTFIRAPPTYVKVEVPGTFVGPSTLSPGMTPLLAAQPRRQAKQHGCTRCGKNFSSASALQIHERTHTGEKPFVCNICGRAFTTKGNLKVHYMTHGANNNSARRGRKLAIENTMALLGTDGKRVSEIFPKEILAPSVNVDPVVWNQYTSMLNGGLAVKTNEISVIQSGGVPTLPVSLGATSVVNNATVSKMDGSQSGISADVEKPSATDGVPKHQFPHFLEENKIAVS
Method: universal PBM
Molecule type: double-stranded DNA, one strand shown
Sample: in vitro
Tested at: 600 nM
Notes: 8-mer, flanks averaged, mean of replicates
Reading: higher = stronger binding
| Sequence | E-score |
| --- | --- |
| GACGAATC | -0.035 |
| ATCACCAG | 0.0623 |
| AAAGGCTG | -0.148 |
| CGGTCCCA | -0.305 |
| CCCGGACG | -0.395 |
| ATTGGAAG | 0.117 |
| AGTTGGTC | -0.0697 |
| AAGACAGA | 0.179 |
| CCACACAA | -0.0286 |
| ACAACGAA | 0.141 |
| CACCCGAC | -0.313 |
| TGCCCAAA | -0.0476 |
| ACTTAACA | 0.0554 |
| GACCATCC | -0.0661 |
| AGCATTCC | -0.0379 |
| GCGCACTA | -0.219 |
| CTGTAACA | 0.112 |
| ACACGCAC | -0.259 |
| AGTTCTAG | -0.117 |
| GCACAAAC | 0.0154 |
| ATGACTGC | 0.129 |
| ATCTCTCG | -0.0242 |
| CATTTATC | 0.247 |

Sample 4
Target: Ras GTPase-activating protein-binding protein 1, full length (G3BP1, Homo sapiens, UniProt Q13283)
UniProt Q13283, sequence (whole entry, looked up): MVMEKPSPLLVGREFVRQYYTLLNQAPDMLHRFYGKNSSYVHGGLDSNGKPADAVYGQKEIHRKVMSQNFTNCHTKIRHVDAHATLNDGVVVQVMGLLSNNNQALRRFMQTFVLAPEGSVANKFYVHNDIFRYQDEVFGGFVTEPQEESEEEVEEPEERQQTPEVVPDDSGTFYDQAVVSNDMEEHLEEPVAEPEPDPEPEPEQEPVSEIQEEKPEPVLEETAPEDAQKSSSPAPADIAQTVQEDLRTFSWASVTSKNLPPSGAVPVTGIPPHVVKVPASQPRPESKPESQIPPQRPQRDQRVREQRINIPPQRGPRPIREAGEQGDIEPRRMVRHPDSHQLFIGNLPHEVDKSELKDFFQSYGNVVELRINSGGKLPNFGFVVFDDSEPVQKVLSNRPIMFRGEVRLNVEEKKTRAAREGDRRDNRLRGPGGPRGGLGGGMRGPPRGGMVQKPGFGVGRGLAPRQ
Method: RNA Bind-n-Seq
Molecule type: RNA
Sample: in vitro
Tested at: 200 nM
Notes: whole 134-nt RNA, ends assumed
Added: 150 mM KCl
Relative to: input library
Reading: higher = stronger binding
Shared flanks, not repeated: GGGAGUUCUACAGUCCGACGAUC … UGGAAUUCUCGGGUGUCAAGG
| Sequence | log2 enrichment |
| --- | --- |
| GCAGGAAGUAAAAACAAAUGGAAAUGCUUCGGAUAGUGGCAGGGGUGGGGGUUGCUAAGGAAAGGGUGGGAUGGGAGUGCGUAAAGAGUU | 0.736 |
| CACAGACAACACGCACCCACACAGACACAAAGGGAAGGGGUUGGGAUGGGGACAGGGUGCACAGCAGGGCGGGGUAGGACCCCAGCCCCU | 1.98 |
| CCUGUGCUACACAUCGUAUGUACCGAAUCGGGGUUUUUUUGGGGUUUUUGGGGUUUGGGGAAAGUAUUAUGUUACGCCGUUCGGAUCUGC | 0.148 |
| UGGGAGGUGGAUUUUGUUUAUUUUUUUAGCUCAGUUCCAGGGGUGGGAAUUUUUUUUUAAUAUGUGUCAUGAAUAAAGUUGUUUUUGAAA | 0.254 |
| UGGCCCUGGUGGCAUGCGGGGAGGAAGAGGUGGCCUCAUGGAUCGUGGUGGUCCCGGUGGAAUGUUCAGAGGUGGCCGUGGUGGAGAGAG | 0.193 |
| UCAAGUCCUGUGCUACACAUCGUAUGUACCGAAUCGGUUUGGUUUGGGUUUGGGGAAAGUAUUAUGUUACGCCGUUCGGAUCUGCACUUC | -0.674 |
| UCCUUUCUGUCAUUUUACACCCACAGUUGAAGAUUCCUGUCUCUGGAUCCAAAUCAGAGGGCCUUCUCUACGUCCACUCAUCCAGAGGUG | -1.55 |
| CCUGUGCUACACAUCGUAUGUACCGAAUCAAAUUUUUUUAAACCCCCCCAAAUUUUUAAAAAAGUAUUAUGUUACGCCGUUCGGAUCUGC | 0.145 |
| UCCUGUGCUACACAUCGUAUGUACCGAAUCGGGUUUUUUUGGGUUUGGGAAAAAAAGGGAAAGUAUUAUGUUACGCCGUUCGGAUCUGCA | -0.48 |
| UCAAGUCCUGUGCUACACAUCGUAUGUACCGAAUCGGGAAGGGGAAGGGAAGGGAAAGUAUUAUGUUACGCCGUUCGGAUCUGCACUUCC | 1.3 |
| CUCAAGUCCUGUGCUACACAUCGUAUGUACCGAAUCGGUUUUUUUGGUGGUGGAAAGUAUUAUGUUACGCCGUUCGGAUCUGCACUUCCA | -0.384 |
| AGUCCUGUGCUACACAUCGUAUGUACCGAAUCAAACCCAAACCCCCCCAAAUUUAAAAAAGUAUUAUGUUACGCCGUUCGGAUCUGCACU | -0.446 |
| AGUCCUGUGCUACACAUCGUAUGUACCGAAUCGGGCCCCCGGGCCCCCGGCCCCCGGGAAAGUAUUAUGUUACGCCGUUCGGAUCUGCAC | -0.954 |
| CCUCAAGUCCUGUGCUACACAUCGUAUGUACCGAAUCGGGGAGGAGGGAGGGAAAGUAUUAUGUUACGCCGUUCGGAUCUGCACUUCCAG | 1.16 |

Sample 5
Target: ABI1, truncated, D143A, DHFR fusion (Arabidopsis thaliana)
Method: DHFR PCA, deep sequencing
Sample: yeast
Notes: methotrexate growth selection, single substitutions
Added: (+)-ABA 17 µM
Relative to: wild-type fitted maximum
Reading: higher = stronger binding
Starting sequence: PYL1, truncated, DHFR fusion (Arabidopsis thaliana); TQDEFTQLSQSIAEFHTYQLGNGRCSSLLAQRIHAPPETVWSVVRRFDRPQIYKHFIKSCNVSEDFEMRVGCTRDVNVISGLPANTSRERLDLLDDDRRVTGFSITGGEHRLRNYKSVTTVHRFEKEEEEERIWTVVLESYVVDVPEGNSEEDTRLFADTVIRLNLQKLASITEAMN
| Substitution | relative binding score |
| --- | --- |
| K58C | 39.5% |
| E89L | -2.04% |
| E109T | 80% |
| R163Q | 76.2% |
| S87M | -1.56% |
| S117L | 1.84% |
| R90F | -11.1% |
| V143E | 3.06% |
| F124N | 50.5% |
| T17H | 68.5% |
| H34G | 73.7% |
| P36H | 80.5% |
| A35H | -4.76% |
| Y18W | 84.1% |
| A84F | 45.5% |
| Q31E | 42.6% |
| L164R | 78.9% |
| V62Q | 7.01% |
| F5R | 78.6% |
| L29N | 66.8% |
| W134M | 99.5% |
| I12N | 4.73% |

Sample 6
Target: Prothrombin, mature alpha-thrombin (F2, Homo sapiens, UniProt P00734)
Method: aptamer microarray, sandwich
Molecule type: DNA with 2'F-ANA
Sample: in vitro
Tested at: 200 nM
Notes: whole 15-mer aptamer, many near background
Added: Cy3 exosite-II aptamer, 400 nM
Reading: higher = stronger binding
Sequence: GGTTGGTGTGGTTGG
| Modification | mean fluorescence intensity [a.u.] |
| --- | --- |
| 2'F-ANA at 2 3 4 6 12 13 14 15 | 269 |
| 2'F-ANA at 2 3 4 7 9 12 13 15 | 601 |
| 2'F-ANA at 2 5 8 9 10 12 14 | 46.2 |
| 2'F-ANA at 2 3 4 5 6 10 11 12 14 | 51.9 |
| 2'F-ANA at 2 3 9 10 12 13 15 | 400 |
| 2'F-ANA at 1 4 5 7 9 11 12 | 118 |
| 2'F-ANA at 2 3 5 6 7 9 | 95.3 |
| 2'F-ANA at 2 4 5 8 9 11 12 13 14 | 43.2 |
| 2'F-ANA at 1 2 6 8 9 10 14 15 | 50.1 |
| 2'F-ANA at 1 2 3 5 6 7 8 10 12 13 | 49.3 |
| 2'F-ANA at 2 3 4 7 8 9 10 12 14 15 | 194 |
| 2'F-ANA at 4 6 8 | 387 |
| 2'F-ANA at 3 6 8 9 11 | 933 |
| 2'F-ANA at 5 6 7 11 13 15 | 52.8 |
| 2'F-ANA at 3 4 6 8 9 11 14 15 | 219 |
| 2'F-ANA at 3 5 7 8 9 11 12 13 15 | 175 |
| 2'F-ANA at 1 2 5 8 11 12 13 14 15 | 47.3 |
| 2'F-ANA at 3 4 7 10 11 13 15 | 270 |
| 2'F-ANA at 3 5 7 9 11 12 | 217 |
| 2'F-ANA at 3 6 7 8 11 15 | 863 |
| 2'F-ANA at 3 5 6 7 8 9 13 | 89.6 |
| 2'F-ANA at 1 4 5 6 7 13 | 48.2 |
| 2'F-ANA at 6 8 9 12 | 863 |
| 2'F-ANA at 2 4 7 13 | 256 |
| 2'F-ANA at 1 2 4 6 9 10 13 15 | 48.7 |

Excerpt of the above (sample 2):
| Molecule | enrichment score |
| --- | --- |
| RRVLCFDS | -0.889 |
| GFGFLLFICKLTF | -0.725 |
| PPKPLKKLRFDIEGSD | -0.428 |
| ARKRLELGNLGNPQ | -1.64 |
| KVKRRLDLDIDGLQKE | -0.0975 |
| LRRQLSFSED | 0.461 |
| LRRKLFLDGNGSIS | -2.86 |
